Results of several laboratories.
Each numbered part is a random draw from the data of one study; scales do not carry over between parts.

Series 1
Target: Histone acetyltransferase KAT6A, winged helix 2, GST fusion (KAT6A, Homo sapiens, UniProt Q92794, residues 85-181)
Technique: protein binding microarray
Form: double-stranded DNA, one strand shown
Sample: in vitro
Concentration: not given
Setting: 8-mer, flanks averaged, mean of 2 arrays, mostly near background
Baseline: not given
Direction: higher = stronger binding
Residues (chain): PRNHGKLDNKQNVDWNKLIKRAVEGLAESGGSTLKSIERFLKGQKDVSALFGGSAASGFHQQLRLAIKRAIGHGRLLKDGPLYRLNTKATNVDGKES
Oligonucleotide	E-score
GGCGCAAC	0.215
AGGTCGTA	-0.159
CGCTTCAA	-0.00546
ACAAAAGC	0.0799
AAGTGTCG	0.0798
CTAAGTCC	-0.146
ATCCTGAC	-0.0526
ACAACAGG	-0.0684
CCTGCCAG	0.147
CGAAAGAC	9.5e-05
GCGAACGA	-0.0214
AGGGTTGC	0.0323
GAAGTGTA	-0.284
CCTATGCA	-0.00113
ATGCAGCC	0.0862
GGTCTGAA	0.0578
CGAAGCTA	0.0563

Series 2
Target: RNA binding protein fox-1 homolog 2, RRM domain, GST-SBP tag (RBFOX2, Homo sapiens, UniProt O43251-10, residues 100-194)
Technique: RNA Bind-n-Seq
Form: RNA
Sample: in vitro
Concentration: 365 nM
Setting: natural RNA segment, single round, ends assumed
Baseline: no-protein control
Direction: higher = stronger binding
Constant ends, left off below: GGGAGUUCUACAGUCCGACGAUC … UGGAAUUCUCGGGUGCCAA
Target sequence (chain): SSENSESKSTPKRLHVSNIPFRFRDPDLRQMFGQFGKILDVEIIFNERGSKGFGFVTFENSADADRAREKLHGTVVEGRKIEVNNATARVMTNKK
Oligonucleotide	RBNS enrichment (R)
ACUGUUAGCCAAACAUUUUGCCUGUUUUCUGUCUCCAGAUGUGUGAUAAUUGGUGUGAGGUUGAAAUCCCUGGUUCCUGGAGGACAGACAACCUGACCUCCGACUGUCAG	0.99
UUAGAAGGCUGCGGUGAUUCAAUUAGAUUGUCCCACUGCUGAGACCUGUAGGGCAGCUUCUAACAUGCUUUUUUCAAGGGGAGAGGAGUAGUGACAAGUCGUGUGUCGGA	0.649
GCCCACCAGGGGAUCAAACCCCUGCUGAUCUUGAUAUCAUAUUUCUGUCAUUUGCCAGUUGAUGGAGCCAAGUUGACCUUUGGUUCUGGUGCUUCACCCAGUUUGGAACU	0.29
AUUUUAAUUUGUUGGCUGGAUGUAUAAAGAUGUUUAAAAAAUUCAGUUGCUUUUUGGGGUAAUUUGAAUUACUUUUUUAAUGACUGGGGUUCCAUUUGACUGUUUGCAUU	2.98
AAGGCUCAAACAGAUGAUGUUUUUUCCACAGAAAAACAAAUUGUUGAAUCUAUUCCGUGCAUAUUUAAGGAUUUUGAAUUGAUUUUGAAAAUCAUGAAACUUGAACUAUU	0.454
GUUCCGUGAUGUAGGGUAAGGUGCCUUCUUAUUCUCACUCCACCACCCAAAAGUCAAAAGGUGCCUGUGAGGCAGGGGCGGAGUGAUACAACUUCAAGUGCAUGCUCUCU	16.7
CCAGACACAGGCCGUGGGACCCAGGCUCCCAGCCUAAGGGAGACAGGCCUUUCCCUGCCGGCCCCCCAAGGAUGGGGUUCUUGUCCACGGGGCUCACUCUGGCCCCCUAU	0.277
GCUGUGGCCAGACAGAUGACACCUUUUGUUAUGUUGAAAUUAACUUGCUAGGCAACCCUAAAUUGGGAAGCAAGUAGCUAGUAUAAAGGCCCUCAAUUGUAGUUGUUUCC	0.321
UAUUUCUUUUGGUAUCUUUCUUCCUGUACAUUGGAGUGAUGGAAAGUCUGGUAUUAAAACCUCUCUUACUUUUAAACUUGAUUUUGCAGACUCUGGCAAUAAGCCUUCCA	0.605
CUGGCAAUGUUUAAGGACAACAAGUUCAAAUGCCGGAUAUUGAAUGAAAAGGUGAAUACUCCAACUACCACAGUCUAUAGGUGUGGCCCUUUGAUAGAUCUCUGCCGGGG	0.668
AUUUUUGUUUCAUUGUUUAAAAGUACUGAAAUGUUCCACCCUGUUAUGUUUUCCUGUACUAGAUGGCUAGGAUUCCAGAGAAUUACUAUAAAGUAUUUUCAACACACCUG	0.352
UGAGGGAUGUUGGACAGAGCCUGUUUUCAUGUACUGCAGGUGGGGGUGUGCUGACAUGUUUGCUCUUGGUUGAUGGAGAAGGUACAGAGGCCAGGGAGUGAAAAUGGUUG	2.73

Series 3
Target: Centromere-binding protein 1, full length, N-terminal tag (CBF1, Saccharomyces cerevisiae, UniProt P17106, residues 1-351)
Sequence of UniProt P17106 (whole entry, looked up): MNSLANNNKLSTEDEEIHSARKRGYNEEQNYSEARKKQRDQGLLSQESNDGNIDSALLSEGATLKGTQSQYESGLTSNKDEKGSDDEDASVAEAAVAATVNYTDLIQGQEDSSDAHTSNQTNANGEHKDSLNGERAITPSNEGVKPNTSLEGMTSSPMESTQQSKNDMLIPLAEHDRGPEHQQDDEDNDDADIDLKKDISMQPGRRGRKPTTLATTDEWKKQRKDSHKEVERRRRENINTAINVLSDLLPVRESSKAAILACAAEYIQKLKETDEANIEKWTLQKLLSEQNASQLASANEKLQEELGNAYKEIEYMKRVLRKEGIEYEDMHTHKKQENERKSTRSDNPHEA
Technique: protein-binding microarray
Form: double-stranded DNA, one strand shown
Sample: in vitro
Concentration: 0.8 µM
Setting: whole 60-bp probe, no competitor
Direction: higher = stronger binding
Constant ends, left off below: … GTCTTGATTCGCTTGACGCTGCTG
Oligonucleotide	fluorescence intensity [a.u.]
CTAATAGTAGATCAACTCGTGCTCTGCTGGCTATTC	568
GAAAAAATGCGGCTGCACGTTGCTTATTACGTGTAG	602
GAAATTACACAGCTACATGTGATATATATCGGGTAG	1510
CTACTTTATGGTCAGCACGTATCGCTTCATATATTC	592
CTATGCCCAGATGGTTCTGATGTTCTTTATCTCTTC	506
GAATTTCCCACAACCGGCACCACCAATTGACCTTAG	519
GAAGCCAGCGATCCCCGCGTGTCCTGCCCCTGATAG	500
GAACAAACACATTTGTAGGTGATGATGACAGCTTAG	500
CTATCTTTTCCACACCACCTTCAAATTTAAGAATTC	701
GAATATCAAGCAGATCTGGTGAAATTTTAAACATAG	502
GAATGTCTGCAGCCACGTGCAAAGTACGGTCGTTAG	4630
CTAAAAGCTTGATGACATGTGATAGCACACCATTTC	1570
CTACTGGATATTCACCACACCTGATTGGGAAGATTC	748
CCTAACTACTATAATCATGTAACATAGCTTCGTACA	541
GAATAGTATTAAAAAAACGTGTATACGTTATTGTAG	696
GAAGATTGCTCGAATCACGTTTTTCTTGTTTTTTAG	1860
GAAAGTAGGACGATTTACACCTGAGTTGGGTGTTAG	525
CTAGCAAATAATATCCTCGTGACCTCGAGGCTTTTC	3620
GAATCCGTTGAAAATAGCGTGGTGAATGGTAAATAG	553
GAAGTGTTATTGTCACCGCTGATGGTTGTGATGTAG	544
CTAGCTAGTATACACCACGCATATGTCTGTCAATTC	512
CTACTTGGAGGAGGTGGTGGAGGCGGAAGGAATTTC	496

Series 4
Target: Protein max, full length (MAX, Homo sapiens, UniProt P61244-2, residues 1-151)
Technique: protein-binding microarray
Form: double-stranded DNA, one strand shown
Sample: in vitro
Concentration: not given
Setting: k-mer, scored over probes, only values ≥0.25
Direction: higher = stronger binding
Oligonucleotide	E-score
ATGTGCTA	0.306
CGTGGAAA	0.344
CCCGTGGA	0.307
ACACATGA	0.424
AGTACATG	0.275
CACGGTGA	0.309
ACGTGACG	0.394
AGTCACAT	0.436
CACCCCAC	0.255
GACGCCAC	0.282
ATGTGTGG	0.299
GTGACACA	0.256
ACCTCGTG	0.476
CCACATGC	0.47
ACATGTCG	0.309
GGGTGGGA	0.27
ATGCCCGC	0.275
ACAGTGTG	0.262
CCCATGCG	0.446
ACGTGACT	0.434
AACGTGGG	0.414

Series 5
Target: Interferon regulatory factor 7, full length, phosphomimetic (IRF7, Homo sapiens, UniProt Q92985, residues 1-503, S101K/S471D/S472D/S475D/S476D/S477D/S483D/S484D/S487D)
Sequence of UniProt Q92985 (whole entry, unmodified, looked up): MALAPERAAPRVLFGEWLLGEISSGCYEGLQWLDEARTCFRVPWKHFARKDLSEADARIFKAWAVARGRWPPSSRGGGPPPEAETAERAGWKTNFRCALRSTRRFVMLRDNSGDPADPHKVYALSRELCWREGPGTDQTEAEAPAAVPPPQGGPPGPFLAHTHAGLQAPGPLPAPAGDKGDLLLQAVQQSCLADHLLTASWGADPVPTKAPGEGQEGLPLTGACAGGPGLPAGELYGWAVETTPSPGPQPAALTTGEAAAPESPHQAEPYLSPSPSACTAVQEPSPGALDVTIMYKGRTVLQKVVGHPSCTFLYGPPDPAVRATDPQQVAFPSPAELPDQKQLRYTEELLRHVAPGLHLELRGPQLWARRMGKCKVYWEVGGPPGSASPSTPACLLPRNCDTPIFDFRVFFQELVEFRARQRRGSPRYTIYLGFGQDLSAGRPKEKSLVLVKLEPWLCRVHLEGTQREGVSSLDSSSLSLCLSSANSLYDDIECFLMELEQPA
Technique: protein-binding microarray
Form: double-stranded DNA, one strand shown
Sample: in vitro
Concentration: 250 nM
Setting: 60-bp whole probe
Together with: salmon DNA 0.4 mg/ml
Baseline: random background probes
Direction: higher = stronger binding
Constant ends, left off below: GCCTAGCAC … GTCTTGATTCGCTTGACGCTGCTG
Oligonucleotide	log fluorescence [z-score]
AGTTTTTACTTTCTGAATGCGTGCTAG	1.74
TTAGGACTGGGGGATCGGTTAGTGCTA	0.75
TCACATTTGATAAATCTTACTGTGCTA	0.531
GACGAACTGAGTCTGGAGACGTGCTAG	-0.346
TTAGATTTTAGTTCCGATTAGTGCTAG	1.35
TTAGGACTGCTTTTTCTTTAGTGCTAG	0.789
GACGGACTGCTTGTCCTGACGTGCTAG	-0.632
TTAGGTTCCCTTTTCTTTTAGTGCTAG	3.89
GACGTACTGAGACTGGAGACGTGCTAG	-0.014
TTAGGTTTGGACTTTCGGTTAGTGCTA	0.845
TTAGATATCGGGCATCGATTAGTGCTA	-0.105
CACGATATCAGACTGGAGACGTGCTAG	0.195
TTGGTTTTCATTATTGCTTCGTGCTAG	1.48
TCATTTTTTAATTGAGAACTGTGCTAG	0.519
GACGGTTTCGACTATCGTGACGTGCTA	5.32
TCAGTTTCCTCTTTCTTACTGTGCTAG	4.54
TTAGATTTCGGGTATCGAGTAGTGCTA	1.02
GACGATTTCAGTCTCGAGTCGTGCTAG	1.78
ACAAGTTTCTCCTTTCGGAAGTGCTAG	3.86
GACGATATCAGTTTCGACACGTGCTAG	2.64
TTAGGTTTCGCTTTCGGTTAGTGCTAG	14.1
GACGATTTCAGTGCCGAGACGTGCTAG	-0.0584
TCATGTTTGAGTCTTCTACTGTGCTAG	-0.0986
AACGATCTCAGTCTCGAGACGTGCTAG	0.568
TGAGGTATCGACACTGGGTTAGTGCTA	-0.8

Excerpt of the above (series 4):
Oligonucleotide	E-score
GGGTGGGA	0.27
CCACATGC	0.47
GTGACACA	0.256
ATGTGCTA	0.306
AGTCACAT	0.436
ACACATGA	0.424
ATGTGTGG	0.299
